Experimental data pooled from the literature.
A part holds a random share of what one study measured.

Block 1
Target: Histone acetyltransferase KAT6A, winged helix 2, GST fusion (KAT6A, Homo sapiens, UniProt Q92794, residues 85-181)
Method: protein binding microarray
Molecule type: double-stranded DNA, one strand shown
Sample: in vitro
Tested at: not given
Setting: 8-mer, flanks averaged, mean of 2 arrays, mostly near background
Relative to: not given
Reading: higher = stronger binding
Measurement: E-score
Target sequence (chain): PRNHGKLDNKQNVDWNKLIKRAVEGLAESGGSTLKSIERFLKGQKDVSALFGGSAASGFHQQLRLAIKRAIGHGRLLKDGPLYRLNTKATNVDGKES
CCTTTGCA: -0.00304
CTCCAGGC: 0.103
CGTAGTGA: -0.0736
CCCTAAGA: -0.00769
AAGTGACG: 0.158
CACCGTGA: -0.0458
CCAACTGC: 0.0538
AAGGTTAG: -0.223
ATCGTCAG: -0.0256
ACAATACG: -0.131
GACAGACA: 0.0646
AAATAACA: -0.127
CCGCCATC: 0.073
AGCTGAAT: 0.0245
AGATCTCA: -0.0937
TCCAGCCA: -0.0893
CATTGTGG: -0.0197
AAGCGGCT: 0.0763
CCGAGACG: 0.102
GCCGGTGA: 0.0324
ACGAGGGC: -0.00637
TTATAGAA: 0.167
ACGGGCGG: -0.00979
AGTGCAGA: -0.1
CTACCCTA: -0.219

Block 2
Target: Ras GTPase-activating protein-binding protein 1, full length (G3BP1, Homo sapiens, UniProt Q13283)
Chain of UniProt Q13283 (whole entry, looked up): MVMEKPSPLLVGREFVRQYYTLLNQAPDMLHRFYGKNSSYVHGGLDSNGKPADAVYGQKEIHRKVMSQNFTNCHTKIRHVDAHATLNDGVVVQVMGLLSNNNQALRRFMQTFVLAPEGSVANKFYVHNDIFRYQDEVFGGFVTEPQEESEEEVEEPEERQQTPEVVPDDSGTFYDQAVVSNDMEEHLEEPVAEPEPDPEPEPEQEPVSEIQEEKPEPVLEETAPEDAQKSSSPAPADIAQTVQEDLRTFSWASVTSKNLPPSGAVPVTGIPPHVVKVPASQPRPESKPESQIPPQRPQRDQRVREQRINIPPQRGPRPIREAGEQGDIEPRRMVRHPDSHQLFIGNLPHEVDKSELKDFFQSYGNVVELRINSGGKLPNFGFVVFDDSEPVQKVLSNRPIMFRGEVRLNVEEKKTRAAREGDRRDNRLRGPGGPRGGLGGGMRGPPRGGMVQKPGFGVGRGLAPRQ
Method: RNA Bind-n-Seq
Molecule type: RNA
Sample: in vitro
Tested at: 200 nM
Setting: whole 134-nt RNA, ends assumed
Added: 150 mM LiCl
Relative to: input library
Reading: higher = stronger binding
Measurement: log2 enrichment
All molecules: 7-deaza-guanosine replaces G
All sequences stand within: GGGAGUUCUACAGUCCGACGAUC … UGGAAUUCUCGGGUGUCAAGG
UCCUGUGCUACACAUCGUAUGUACCGAAUCGGGUUUUUUGGGUUUUUUGGGUUUUUUGGGAAAGUAUUAUGUUACGCCGUUCGGAUCUGC: 0.26
GUCCUGUGCUACACAUCGUAUGUACCGAAUCGGGGAAAAAGGGAAAAAGGAAAAAGGGAAAGUAUUAUGUUACGCCGUUCGGAUCUGCAC: 0.00877
CUGUGCUACACAUCGUAUGUACCGAAUCGGGCCCCCCCGGGGCCCCCCCGGGCCCCCCCGGGAAAGUAUUAUGUUACGCCGUUCGGAUCU: -0.783
GUCCUGUGCUACACAUCGUAUGUACCGAAUCGGAAAAAGGAAAAAAAGGAAAAAAAGGAAAGUAUUAUGUUACGCCGUUCGGAUCUGCAC: -0.613
CCUCAAGUCCUGUGCUACACAUCGUAUGUACCGAAUCGGUGGUUUGGUUUGGAAAGUAUUAUGUUACGCCGUUCGGAUCUGCACUUCCAG: -0.463
CACAGACAACACGCACCCACACAGACACAGAGGGAAGGGGUUGGGAUGGGGACAGGGUGCACAGCAGGGCGAGGUAGGACCCCAGCCCCU: 0.124
CAAGUCCUGUGCUACACAUCGUAUGUACCGAAUCGGUUUUUUUGGUUUGGAAAGGAAAGUAUUAUGUUACGCCGUUCGGAUCUGCACUUC: -1.25
CCUGUGCUACACAUCGUAUGUACCGAAUCGGGCCCCCCGGCCCCCCGGGGCCCCCCGGGGAAAGUAUUAUGUUACGCCGUUCGGAUCUGC: 0.0491

Block 3
Target: RNA binding protein fox-1 homolog 2, RRM domain, GST-SBP tag (RBFOX2, Homo sapiens, UniProt O43251-10, residues 100-194)
Method: RNA Bind-n-Seq
Molecule type: RNA
Sample: in vitro
Tested at: 365 nM
Setting: natural RNA segment, single round, ends assumed
Relative to: no-protein control
Reading: higher = stronger binding
Measurement: RBNS enrichment (R)
All sequences stand within: GGGAGUUCUACAGUCCGACGAUC … UGGAAUUCUCGGGUGCCAA
Residues (chain): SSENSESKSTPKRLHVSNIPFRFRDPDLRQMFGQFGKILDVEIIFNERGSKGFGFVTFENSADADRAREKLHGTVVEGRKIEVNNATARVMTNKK
UAUGUGAGUAGUCUUAUGUAAAGUAUGUUUUUACAUUAUGCAAAUAAAACCCAAUACUUUUGUCCAAUGUGGUUGGUCAAAUCAACUGAAUAAAUUCAGUAUUUUGCCUU: 0.621
CUCUGGUUCCCUCCUUGCCUUCUGCUUCUCUUCCAUCUGGUUGACAACACCUAAGGUGUUGUGACUGUUCCCCCACCCAGUGCAUGUUCUUUCCCUCCAUUUCUGUGGCU: 19.1
AUAAUAGCUGGUAUGUAUCCAGCUCUUGCUAGGUGCUAGGUACUCAAAGUACAUGGCCUGAGUUCUCUUCUGCCUCCCACAGCAAAGUUGAGGCUGCACUGUAGAGACAC: 0.328
UCAGACAAGAACUCCCUGGUUGAAAGAAGCCACCUCGAUGCAAAGGCUCAAGGUCCAGGGAGAGACAACAGAGGAGUGUCCAAGACUUGCCCACACCUCCUCCCAUUUGC: 0.429
GUGGCUGGGGCUCCCUUACCAGAGGGGCAAGUCUGGCCCCUCAGUCCUUAACUGGAAAGUGACCCUCUUCUACCCCUGGAGUCCAUCUGGACAGAGCCAGCCUGAGGCCC: 0.566
GGAAUGGACUUUCCCCUAGGUAUCCAGGGAACCCAUUUUAGAAUUCGGGGGACCUGGCUUUGAGCUAGUUGGCCCCCAGCCCCAGCUGGUUUUUCUAAGGGUCAACUCAG: 0.25
AUUUCAAGAGAAUAUGUUGGCCUAAUUGUUGGGUUGGCUGGGACCUGCUCUGAAGGGAUCCCUCAGUUCACCGAUUGGCAAGCCAAGGUCAGUCCUUGCUGUUGAUGGAG: 0.238
AAUUUAGUUAGACUAAACAUAAUUCUUUAAGUUCAACCUAAAGGGCUGAGAUCAAUAAAUUUAACACUAGACGAAGUAGACUUCCUGUCUUUUUGAGAAGAGAUGAGGUA: 0.582

Block 4
Target: Prothrombin, mature alpha-thrombin (F2, Homo sapiens, UniProt P00734)
Method: aptamer microarray, sandwich
Molecule type: DNA with 2'F-ANA
Sample: in vitro
Tested at: 200 nM
Setting: whole 15-mer aptamer, many near background
Added: Cy3 exosite-II aptamer, 400 nM
Reading: higher = stronger binding
Measurement: mean fluorescence intensity
Strand: GGTTGGTGTGGTTGG
2'F-ANA at 2 3 4 5 10 12 13 15: 51.8 a.u.
2'F-ANA at 1 3 4 5 7 12 14 15: 65.1 a.u.
2'F-ANA at 1 3 5 6 11 15: 54.5 a.u.
2'F-ANA at 2 3 6 13 15: 559 a.u.
2'F-ANA at 1 4 6 8 10 11 12 13 15: 52.9 a.u.
2'F-ANA at 2 5 6 7 8 9 10 11 12: 65.6 a.u.
2'F-ANA at 1 3 7 8 10 13 14: 69.1 a.u.
2'F-ANA at 1 2 3 7 9 10 11 12 14 15: 82.4 a.u.
2'F-ANA at 1 2 4 7 11: 109 a.u.
2'F-ANA at 3 6 13 15: 827 a.u.
2'F-ANA at 1 3 5 11 12 13: 111 a.u.
2'F-ANA at 1 2 3 4 6 10 12 13 15: 61.7 a.u.
2'F-ANA at 2 4 6 10 11 12 13 14 15: 91.6 a.u.
2'F-ANA at 4 5 6 10 12 13 14: 58.2 a.u.
2'F-ANA at 2 4 6 7 10 11 15: 73.1 a.u.
2'F-ANA at 1 2 3 5 8 9 11 12 14 15: 51 a.u.
2'F-ANA at 3 5 9 10 11 12 14 15: 56.3 a.u.
2'F-ANA at 1 3 4 5 6 7 8 9 11 12 15: 96.2 a.u.
2'F-ANA at 2 3 4 5 6 11 12 14 15: 56.4 a.u.
